Results pooled from the literature.
Each line is one published result; not all experiments were run side by side. Values joined by “and” are separate records of one study, mostly repeats; a detail may differ.

| SMILES | assay | system | conditions | how to read | endpoint | value |
| --- | --- | --- | --- | --- | --- | --- |
| NC(=O)c1cnc2[nH]ccc2c1N[C@@H]1[C@@H]2CC3C[C@H]1C[C@@](O)(C3)C2 | flow cytometry | Japanese healthy men, blood | oral, 100 mg twice daily, 72 h after day 7 dose | baseline: baseline | CD8+ effector memory change | 0.18% |
| O=C(O)CNC(=O)Cc1ccccc1 | – | ventricular cardiomyocytes, C57BL/6 mouse | dose not given, 0.38 s | – | sarcomere length | 1.72 µm |
| C[C@H]1C[C@H]2CSC(N)=N[C@@]2(c2nc(NC(=O)c3ccc(OC(F)F)cn3)cs2)CO1 | measured: total Aβ | healthy adults, plasma | 200 mg single dose, 8 h post-dose | baseline: placebo | percent change from baseline | -59.1% |
| CC(C)NCC(O)c1ccc(O)c(O)c1 (centres unmarked) | – | ventricular cardiomyocytes, C57BL/6 mouse | dose not given, 0.668 s | – | sarcomere length | 1.72 µm |
| c1ccc(-c2n[nH]cc2-c2ccnc3ccccc23)nc1 | kinase binding, competitor, MIB/MS competition, measured: HRK1 | Candida albicans cell lysate | 100 nM | baseline: DMSO | log2 fold change | 1.33 |
| OC(CCN1CCCCC1)(c1ccccc1)C1CC2C=CC1C2 (centres unmarked) | resting-state EEG | healthy elderly humans | oral, 4 mg, eyes closed, LS mean | – | EEG Beta3-power Pz-O2 | 2.1 µV² |
| CN[C@@H]1COc2c(S(=O)(=O)NC(=O)Nc3c4c(cc5c3CCC5)CCC4)cnn2C1 | measured: IL-1β | human participants, whole blood ex vivo | 1800 mg single dose, 24 h, added: LPS/ATP | baseline: baseline | inhibition | 98.9% |
| Cc1nn(-c2nc3c(F)cc(F)cc3s2)c(O)c1C(c1ccc(C(F)(F)F)cc1)c1c(C)nn(-c2nc3c(F)cc(F)cc3s2)c1O | measured: inflammatory infiltration | mouse, cerulein-induced acute pancreatitis | 25 mg/kg | direction not given | histology score | 0 and 2 |

A few entries again:
| SMILES | assay | system | conditions | how to read | endpoint | value |
| --- | --- | --- | --- | --- | --- | --- |
| c1ccc(-c2n[nH]cc2-c2ccnc3ccccc23)nc1 | kinase binding, competitor, MIB/MS competition, measured: HRK1 | Candida albicans cell lysate | 100 nM | baseline: DMSO | log2 fold change | 1.33 |
